Results gathered from unrelated publications.
Protocols differ between the studies behind these lines. ± marks the error that the study gave.
B1: enzyme (Nilaparvata lugens, UniProt B3GVW3); chain MKMITLILTSFALAIIVTYLVKLSYRRYQFLRKLKGLPGPKAYPIVGDSLEMLYLKRNELMKMNSEKRELYKSIYLEWSGPFAEIHLLRPEYVEVALKSTVNITKSMAYDFLHDWLGTGLLTSSGRKWQERRKMITPAFHFGILEDFVEIFGEKSRTLVEILKKQKFGEEFDIYPMITNCALDIICESAMGTTVNAQEKKDSDYVRAVYEVSELILYRALRPWLYAEFIWKMSSHGKAFYRNLKTLHDFTNKVIVERREATSKKCSLNESDDGVGKKKAFLDLLLEATENGHELSQADIREEVDTFMFEGHDTTAASIGWAIFLLGNNPEVQDRVVEELNDIFGDSDRLATIHDLNDMKYLEMVIKETLRLYPSVPFIGRLVTEDMVVGEHLIPAGVWVNIELFSVHRCRDHYSDPEKFNPDNFLPENTKSRHPFAYVPFSAGPRNCIGQKFALLEEKTILSSILRKFRVESTEKQEDICLMMDLVLRPESGVKIKMYPREQ
B2: enzyme A477T (Populus trichocarpa, UniProt A0A2K1ZZ60); chain ITRQYTFNITHKNFTRLCHTRSLVTVNGQFPGPRLVAREGDQVLVKVVNHVAENITIHWHGVRQLTSGWADGPAYVTQCPIQTGQAYTYNFTITGQRGTLLWHAHISWLRSSLYGPIIILPKLNESYPFKKPYKEIPILFGEWFNVDPEAVIAQALQTGAGPNVSDAYTINGLPGPLYNCSAKDTYKLKVKPGKTYLLRLINAALNDELFFSIANHTLTVVEADAVYVKPFEADTLLISPGQTTNVLLKTKPHLPNATFYMFAGPYFSGMGSFDNSTTAGVLVYKHPSSNNHLKKLPTLKPTLPPINATGFVANFTKKFRSLANAKFPANVPQTVDRKFFFTVGLGTNPCPKNTTCQGPNNNTKFAASINNVSFVLPSVALLQSYFFGQSNGVFTSDFPQNPTIPFNYTGTPPNNTMVSNGTKAVVLTFNTSVELVMQGTSIVTAESHPLHLHGFNFFVVGQGFGNYDPNKDPSNFNLVDPMERNTAGVPAGGWIAIRFLADNPGVWFMHCHLDVHTSWGLRMAWIVLDGPQPNQKIPPPPSDLPKC
B3: ADSL R303C (Homo sapiens, UniProt P30566); chain MAAGGDHGSPDSYRSPLASRYASPEMCFVFSDRYKFRTWRQLWLWLAEAEQTLGLPITDEQIQEMKSNLENIDFKMAAEEEKRLRHDVMAHVHTFGHCCPKAAGIIHLGATSCYVGDNTDLIILRNALDLLLPKLARVISRLADFAKERASLPTLGFTHFQPAQLTTVGKRCCLWIQDLCMDLQNLKRVRDDLRFRGVKGTTGTQASFLQLFEGDDHKVEQLDKMVTEKAGFKRAFIITGQTYTRKVDIEVLSVLASLGASVHKICTDIRLLANLKEMEEPFEKQQIGSSAMPYKRNPMRSECCCSLARHLMTLVMDPLQTASVQWFERTLDDSANRRICLAEAFLTADTILNTLQNISEGLVVYPKVIERRIRQELPFMATENIIMAMVKAGGSRQDCHEKIRVLSQQAASVVKQEGGDNDLIERIQVDAYFSPIHSQLDHLLDPSSFTGRASQQVQRFLEEEVYPLLKPYESVMKVKAELCL
B4: BGLU7 (Oryza sativa, UniProt Q75I93); chain AAVPKPNWLGGLSRAAFPKRFVFGTATSAYQVEGMAASGGRGPSIWDAFAHTPGNVAGNQNGDVATDQYHRYKEDVNLMKSLNFDAYRFSISWSRIFPDGEGRVNQEGVAYYNNLINYLLQKGITPYVNLYHYDLPLALEKKYGGWLNAKMADLFTEYADFCFKTFGNRVKHWFTFNEPRIVALLGYDQGTNPPKRCTKCAAGGNSATEPYIVAHNFLLSHAAAVARYRTKYQAAQQGKVGIVLDFNWYEALSNSTEDQAAAQRARDFHIGWYLDPLINGHYPQIMQDLVKDRLPKFTPEQARLVKGSADYIGINQYTASYMKGQQLMQQTPTSYSADWQVTYVFAKNGKPIGPQANSNWLYIVPWGMYGCVNYIKQKYGNPTVVITENGMDQPANLSRDQYLRDTTRVHFYRSYLTQLKKAIDEGANVAGYFAWSLLDNFEWLSGYTSKFGIVYVDFNTLERHPKASAYWFRDMLKH
B5: enzyme (Enterococcus faecalis, UniProt Q838J7); chain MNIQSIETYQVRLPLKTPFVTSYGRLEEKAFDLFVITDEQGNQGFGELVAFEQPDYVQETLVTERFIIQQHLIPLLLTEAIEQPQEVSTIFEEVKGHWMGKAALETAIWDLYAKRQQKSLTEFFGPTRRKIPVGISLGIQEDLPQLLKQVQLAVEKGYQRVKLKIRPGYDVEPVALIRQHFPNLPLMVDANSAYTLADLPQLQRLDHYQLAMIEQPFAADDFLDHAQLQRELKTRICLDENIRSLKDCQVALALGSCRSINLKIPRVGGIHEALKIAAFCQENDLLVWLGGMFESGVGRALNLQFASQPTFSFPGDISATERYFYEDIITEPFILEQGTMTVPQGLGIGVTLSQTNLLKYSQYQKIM
B6: bglA A17S (Acetivibrio thermocellus, UniProt P26208); chain MSKITFPKDFIWGSATSAYQIEGAYNEDGKGESIWDRFSHTPGNIADGHTGDVACDHYHRYEEDIKIMKEIGIKSYRFSISWPRIFPEGTGKLNQKGLDFYKRLTNLLLENGIMPAITLYHWDLPQKLQDKGGWKNRDTTDYFTEYSEVIFKNLGDIVPIWFTHNEPGVVSLLGHFLGIHAPGIKDLRTSLEVSHNLLLSHGKAVKLFREMNIDAQIGIALNLSYHYPASEKAEDIEAAELSFSLAGRWYLDPVLKGRYPENALKLYKKKGIELSFPEDDLKLISQPIDFIAFNNYSSEFIKYDPSSESGFSPANSILEKFEKTDMGWIIYPEGLYDLLMLLDRDYGKPNIVISENGAAFKDEIGSNGKIEDTKRIQYLKDYLTQAHRAIQDGVNLKAYYLWSLLDNFEWAYGYNKRFGIVHVNFDTLERKIKDSGYWYKEVIKNNGF
B7: bglA S39T (Acetivibrio thermocellus, UniProt P26208); chain MSKITFPKDFIWGSATAAYQIEGAYNEDGKGESIWDRFTHTPGNIADGHTGDVACDHYHRYEEDIKIMKEIGIKSYRFSISWPRIFPEGTGKLNQKGLDFYKRLTNLLLENGIMPAITLYHWDLPQKLQDKGGWKNRDTTDYFTEYSEVIFKNLGDIVPIWFTHNEPGVVSLLGHFLGIHAPGIKDLRTSLEVSHNLLLSHGKAVKLFREMNIDAQIGIALNLSYHYPASEKAEDIEAAELSFSLAGRWYLDPVLKGRYPENALKLYKKKGIELSFPEDDLKLISQPIDFIAFNNYSSEFIKYDPSSESGFSPANSILEKFEKTDMGWIIYPEGLYDLLMLLDRDYGKPNIVISENGAAFKDEIGSNGKIEDTKRIQYLKDYLTQAHRAIQDGVNLKAYYLWSLLDNFEWAYGYNKRFGIVHVNFDTLERKIKDSGYWYKEVIKNNGF
B8: enzyme (Enterococcus faecalis, UniProt Q836M4); chain MEIHFEKVTSDNRKAVENLQVFAEQQAFIESMAENLKESDQFPEWESAGIYDGNQLIGYAMYGRWQDGRVWLDRFLIDQRFQGQGYGKAACRLLMLKLIEKYQTNKLYLSVYDTNSSAIRLYQQLGFVFNGELDTNGERVMEWTHQNK
Chain of UniProt O95551 (whole entry, looked up): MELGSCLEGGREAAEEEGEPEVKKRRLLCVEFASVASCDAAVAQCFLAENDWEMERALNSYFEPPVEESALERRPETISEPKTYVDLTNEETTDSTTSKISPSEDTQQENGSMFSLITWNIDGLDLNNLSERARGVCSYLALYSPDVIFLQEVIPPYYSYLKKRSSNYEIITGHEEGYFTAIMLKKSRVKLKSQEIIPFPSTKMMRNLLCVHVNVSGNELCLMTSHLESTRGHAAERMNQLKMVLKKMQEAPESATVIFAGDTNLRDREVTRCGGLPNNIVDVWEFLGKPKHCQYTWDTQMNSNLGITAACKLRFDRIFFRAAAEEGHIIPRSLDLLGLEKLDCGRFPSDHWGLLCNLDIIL
Chain of UniProt Q944I4 (whole entry, looked up): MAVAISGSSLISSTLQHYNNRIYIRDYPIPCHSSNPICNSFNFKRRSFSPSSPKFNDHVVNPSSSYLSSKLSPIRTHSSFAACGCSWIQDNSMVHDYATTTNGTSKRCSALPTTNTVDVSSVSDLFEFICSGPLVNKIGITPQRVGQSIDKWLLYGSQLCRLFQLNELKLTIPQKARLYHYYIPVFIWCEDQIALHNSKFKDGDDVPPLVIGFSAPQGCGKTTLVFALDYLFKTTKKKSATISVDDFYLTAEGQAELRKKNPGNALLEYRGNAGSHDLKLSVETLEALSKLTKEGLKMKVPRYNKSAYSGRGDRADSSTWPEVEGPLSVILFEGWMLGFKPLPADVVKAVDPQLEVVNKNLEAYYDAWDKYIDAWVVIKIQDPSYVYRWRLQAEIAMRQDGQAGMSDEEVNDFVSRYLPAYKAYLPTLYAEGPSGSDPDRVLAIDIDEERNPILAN
Chain of UniProt Q9I4K6 (whole entry, looked up): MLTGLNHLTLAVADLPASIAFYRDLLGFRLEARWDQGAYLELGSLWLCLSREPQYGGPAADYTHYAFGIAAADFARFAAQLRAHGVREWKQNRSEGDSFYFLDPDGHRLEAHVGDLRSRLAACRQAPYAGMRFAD
Chain of UniProt P0CJ63 (whole entry, looked up): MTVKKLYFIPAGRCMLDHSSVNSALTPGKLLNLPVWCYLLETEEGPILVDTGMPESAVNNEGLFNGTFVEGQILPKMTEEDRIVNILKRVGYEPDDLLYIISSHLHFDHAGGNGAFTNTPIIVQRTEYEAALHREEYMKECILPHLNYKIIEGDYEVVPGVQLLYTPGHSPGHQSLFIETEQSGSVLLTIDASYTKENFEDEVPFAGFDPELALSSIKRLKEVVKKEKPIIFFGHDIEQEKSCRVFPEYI

| Substance | target or system | test | test system | conditions | how to read | endpoint | value |
| --- | --- | --- | --- | --- | --- | --- | --- |
| insulin human | – | item: ADCY1 mRNA | EcoHIV-infected mouse, brain | i.p., dose not given | baseline: PBS | fold change | 0.975 |
| B1 (enzyme) | COc1ccc([C@@H]2CC(=O)c3c(O)cc(O)cc3O2)cc1O | steady-state kinetics | – | not purified | – | kcat | 0.0127 ± 0.002 s⁻¹ |
| fcl (Campylobacter jejuni, UniProt F2X7A6) | Nc1nc2c(ncn2[C@@H]2O[C@H](COP(=O)(O)OP(=O)(O)O[C@H]3O[C@@H](CCO)C(=O)[C@H](O)[C@@H]3O)[C@@H](O)[C@H]2O)c(=O)[nH]1 | steady-state kinetics | – | pH 7.5, 25 °C, apparent | – | kcat | 0.27 ± 0.01 s⁻¹ |
| rCR L137V/L34A (Lodderomyces parapsilosis) | CC(=O)c1ccccc1 | steady-state kinetics | – | pH 7, 30 °C, together with: NADH 0.5 mM | – | kcat | 2.72 s⁻¹ |
| enzyme (UniProt I4BZH5) | N=C(N)NCCC[C@H](N)C(=O)O | steady-state kinetics | – | pH 8, 30 °C | – | kcat | 8.66 ± 0.25 s⁻¹ |
| B2 (enzyme A477T) | COc1cc(/C=C/CO)ccc1O | steady-state kinetics | – | 27 °C | – | kcat | 3.54 ± 1.43 s⁻¹ |
| B3 (ADSL R303C) | Nc1c(C(=O)N[C@@H](CC(=O)O)C(=O)O)ncn1[C@@H]1O[C@H](COP(=O)(O)O)[C@@H](O)[C@H]1O | steady-state kinetics | – | pH 7.4, 25 °C | – | kcat | 27.2 ± 0.4 s⁻¹ |
| enzyme (Nicotiana tabacum, UniProt A0A1S3XCJ5) | Nc1ncnc2c1ncn2[C@@H]1O[C@H](COP(=O)(O)OP(=O)(O)OP(=O)(O)O)[C@@H](O)[C@H]1O | steady-state kinetics | – | pH 7.8, 30 °C | – | kcat | 57.8 ± 1.11 s⁻¹ |
| fosA (Pseudomonas aeruginosa, UniProt Q9I4K6) | C[C@@H]1O[C@@H]1P(=O)(O)O | steady-state kinetics | – | – | – | kcat | 180 ± 6 s⁻¹ |
| enzyme (Bacillus thuringiensis, UniProt P0CJ63) | CCCC(=O)N[C@H]1CCSC1=O | steady-state kinetics | – | pH 8, together with: CoCl2 0.2 mM, DTNB 2 mM | – | kcat | 176 ± 17.1 s⁻¹ |
| B4 (BGLU7) | CC(C)(C#N)O[C@@H]1O[C@H](CO)[C@@H](O)[C@H](O)[C@H]1O | steady-state kinetics | – | pH 6, 30 °C, not purified | – | kcat | 29.9 ± 2.33 s⁻¹ |
| B5 (enzyme) | O=C(O)CCC(=O)C1=CC=C[C@@H](O)[C@@H]1C(=O)O | steady-state kinetics | – | pH 8, 25 °C | – | kcat | 310 ± 12 s⁻¹ |
| rCR L137V (Lodderomyces parapsilosis) | CC(=O)c1ccc(Cl)cc1 | steady-state kinetics | – | pH 7, 30 °C, together with: NADH 0.5 mM | – | kcat | 3.58 ± 0.11 s⁻¹ |
| B6 (bglA A17S) | O=[N+]([O-])c1ccc(O[C@@H]2O[C@H](CO)[C@@H](O)[C@H](O)[C@H]2O)cc1 | steady-state kinetics | – | pH 5.5, 60 °C | – | kcat | 400 ± 14 s⁻¹ |
| TDP2 (Homo sapiens, UniProt O95551) | Cc1cn([C@H]2C[C@H](O)[C@@H](COP(=O)(O)Oc3ccc([N+](=O)[O-])cc3)O2)c(=O)[nH]c1=O | steady-state kinetics | – | – | – | kcat | 35 ± 2.8 s⁻¹ |
| B7 (bglA S39T) | O=[N+]([O-])c1ccc(O[C@@H]2O[C@H](CO)[C@@H](O)[C@H](O)[C@H]2O)cc1 | steady-state kinetics | – | pH 5.5, 60 °C | – | kcat | 260 ± 8 s⁻¹ |
| nfsB K14Q (Escherichia coli) | NC(=O)N/N=C/c1ccc([N+](=O)[O-])o1 | steady-state kinetics | – | pH 7, 37 °C | – | kcat | 1.7 ± 0.1 s⁻¹ |
| enzyme (Arabidopsis thaliana, UniProt Q944I4) | Nc1ncnc2c1ncn2[C@@H]1O[C@H](COP(=O)(O)OP(=O)(O)OP(=O)(O)O)[C@@H](O)[C@H]1O | steady-state kinetics | – | pH 7.8, 30 °C | – | kcat | 84.8 ± 2.11 s⁻¹ |
| B8 (enzyme) | NCCCNCCCCNCCCN | steady-state kinetics | – | pH 8, 37 °C, Hill n 1.7, together with: AcCoA 1 mM | – | kcat | 23.7 ± 0.7 s⁻¹ |

A few entries again:
| Substance | target or system | test | test system | conditions | how to read | endpoint | value |
| --- | --- | --- | --- | --- | --- | --- | --- |
| B5 (enzyme) | O=C(O)CCC(=O)C1=CC=C[C@@H](O)[C@@H]1C(=O)O | steady-state kinetics | – | pH 8, 25 °C | – | kcat | 310 ± 12 s⁻¹ |
| rCR L137V (Lodderomyces parapsilosis) | CC(=O)c1ccc(Cl)cc1 | steady-state kinetics | – | pH 7, 30 °C, together with: NADH 0.5 mM | – | kcat | 3.58 ± 0.11 s⁻¹ |
